# Results from different studies.
# Each numbered part is a random draw from the data of one study; scales do not carry over between parts.

# Sample 1 — method: competition protein-binding microarray; form: double-stranded DNA, one strand shown; matrix: in vitro; tested at: 2 µM; together with: Cbf1 competitor, 0.05 µM; direction: higher = stronger binding; shared flanks, not repeated: … GTCTTGATTCGCTTGACGCTGCTG
# Target: Phosphate system positive regulatory protein PHO4, full length, GST-tagged (PHO4, Saccharomyces cerevisiae, UniProt P07270, residues 1-312)
# Notes: whole 60-bp probe, lowest competitor level
# Construct (chain): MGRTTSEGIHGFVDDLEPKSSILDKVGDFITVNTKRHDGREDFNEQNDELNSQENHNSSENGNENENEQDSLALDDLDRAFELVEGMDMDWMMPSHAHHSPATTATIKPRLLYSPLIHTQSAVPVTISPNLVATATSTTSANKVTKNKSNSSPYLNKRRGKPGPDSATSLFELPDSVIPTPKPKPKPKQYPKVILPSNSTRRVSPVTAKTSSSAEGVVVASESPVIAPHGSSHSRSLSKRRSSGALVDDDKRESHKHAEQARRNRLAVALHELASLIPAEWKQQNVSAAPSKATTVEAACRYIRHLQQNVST
Sequence,fluorescence intensity [a.u.]
ATCGAGGGAAAAAAAGTTGTGACGGAGGGGAAGGTT,3890
AAATTACTAAGTTTTCACGTGCTCTACCCCGTATGA,15200
GTCTGCAAGTTTCTGCCCGTGCTTTTGTGTACCAAT,9110
CCTTTAGCACATAACCATGTGATTTATCCTCGCTTA,8070
CATACCCAACCTTTTCACGTGCCTTAAGATATTTGT,14900

# Sample 2 — method: protein-binding microarray; form: double-stranded DNA, one strand shown; matrix: in vitro; tested at: 2200 nM top; notes: 60-bp whole probe; together with: salmon DNA 0.4 mg/ml; reference: random background probes; direction: higher = stronger binding
# Target: Interferon regulatory factor 7, full length, phosphomimetic (IRF7, Homo sapiens, UniProt Q92985, residues 1-503, S471D/S472D/S475D/S476D/S477D/S483D/S484D/S487D)
# Construct (chain): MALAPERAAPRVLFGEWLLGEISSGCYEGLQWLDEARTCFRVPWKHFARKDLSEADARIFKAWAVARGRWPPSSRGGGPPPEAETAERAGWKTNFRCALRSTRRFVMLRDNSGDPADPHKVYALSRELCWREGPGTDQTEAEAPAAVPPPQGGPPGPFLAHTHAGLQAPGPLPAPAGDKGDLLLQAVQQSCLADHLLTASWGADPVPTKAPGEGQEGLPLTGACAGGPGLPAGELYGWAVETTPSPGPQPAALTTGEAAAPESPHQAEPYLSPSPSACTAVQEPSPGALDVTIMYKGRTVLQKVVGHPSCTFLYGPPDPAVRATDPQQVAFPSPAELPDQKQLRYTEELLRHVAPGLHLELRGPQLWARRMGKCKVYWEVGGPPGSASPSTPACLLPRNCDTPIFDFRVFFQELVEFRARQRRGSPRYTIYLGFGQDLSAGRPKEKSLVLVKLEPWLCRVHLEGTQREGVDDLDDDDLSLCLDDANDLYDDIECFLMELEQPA
Sequence,fitted relative affinity
GCCTAGCACGACGGTTTTGACTTTCGGGACGTGCTAGTCTTGATTCGCTTGACGCTGCTG,4.18 z-score
GCCTAGCACTCATAATTCCTGCCTGAGACTGTGCTAGTCTTGATTCGCTTGACGCTGCTG,1.03 z-score
GCCTAGCACTTAGGTCTCCATTTCCTTTAGTGCTAGGTCTTGATTCGCTTGACGCTGCTG,1.56 z-score
GCCTAGCACGACGGTGTCGGGACTGGGGACGTGCTAGTCTTGATTCGCTTGACGCTGCTG,-1.05 z-score

# Sample 3 — method: aptamer microarray, sandwich; form: DNA with 2'F-ANA; matrix: in vitro; tested at: 200 nM; together with: Cy3 exosite-II aptamer, 400 nM; direction: higher = stronger binding
# Target: Prothrombin, mature alpha-thrombin (F2, Homo sapiens, UniProt P00734)
# Notes: whole 15-mer aptamer, many near background
Sequence,mean fluorescence intensity
GGTTGGTGTGGTTGG (2'F-ANA at 1 2 3 4 5 7 8 9 12 13),74.4 a.u.
GGTTGGTGTGGTTGG (2'F-ANA at 2 7 8 11 14),162 a.u.
GGTTGGTGTGGTTGG (2'F-ANA at 1 3 4 6 7 9 10 11 12 13),65 a.u.
GGTTGGTGTGGTTGG (2'F-ANA at 1 6 8 9 10 11 14 15),51.8 a.u.

# Further values, each from its own experiment
Substance,target,test,system,setting,how to read,measurement,result
"PhoQ, residues 284 288 289 292 302 303 SIHMAM","PhoP, residues 12 14 15 18 19 IFFTR (Escherichia coli, UniProt P23836)","Sort-seq, measured: YFP reporter",E. coli,"PhoQ-PhoP variant library, together with: 10 µM Mg2+","reference: high Mg2+ state, higher = stronger signaling",fold induction,1.32

# A few entries again (sample 2):
Sequence,fitted relative affinity
GCCTAGCACGACGGTTTTGACTTTCGGGACGTGCTAGTCTTGATTCGCTTGACGCTGCTG,4.18 z-score
GCCTAGCACTCATAATTCCTGCCTGAGACTGTGCTAGTCTTGATTCGCTTGACGCTGCTG,1.03 z-score
